Measured values pooled from the literature.
Lines come from different studies, so protocols differ. Values joined by “and” are separate records of one study, mostly repeats; a detail may differ.
Cell line: MDA-MB-231

SMILES | test | conditions | IC50
CCCN1C(=O)CS/C1=N\N=C\c1cccc2cc3ccccc3nc12 | cell growth or viability, MTT | 48 h | > 50 µM
Clc1ccc(C(Cn2cnc3ccccc32)OCc2ccc3ccccc3c2)c(Cl)c1 (centres unmarked) | cell growth or viability, MTT | 24 h | > 50 µM
CCCc1cc2cc(-n3nc(C(F)F)c4c3CC(C)(C)CC4=O)cc(N3CCC(O)CC3)c2c(=O)[nH]1 | cell growth or viability, MTS |  | 5.12 µM
O=C1C(=NN=c2[nH]ccs2)c2cc(Cl)ccc2N1CCn1ncc2c(=O)[nH]cnc21 | cell growth or viability, SRB | 72 h | 1.72 µg/mL
COc1ccc(CNC[C@@](O)(COCc2ccc(OC)cc2)[C@@H]2CC[C@@H](C)C[C@H]2OCc2ccc(OC)cc2)cc1 | cell growth or viability, MTT | 72 h | 2.84 µM
CCN1CCN(CC(=O)N2CCN(CC(OCc3ccc4ccccc4c3)c3ccc(Cl)cc3Cl)CC2)CC1 (centres unmarked) | cell growth or viability, MTT | 24 h | 37.6 µM
CCCc1cc2cc(-n3nc(CCC)c4c3CC(C)(C)CC4=O)cc(N3CCC(O)CC3)c2c(=O)[nH]1 | cell growth or viability, MTS |  | 8.9 µM
CCCN1C(=O)/C(=C/C(=O)OCC)S/C1=N\N=C\c1cccc2cc3ccccc3nc12 | cell growth or viability, MTT | 48 h | > 50 µM
NC(=S)NN=Cc1ccc([N+](=O)[O-])o1 | cell growth or viability, resazurin |  | 44 µM
Cc1ccccc1/C=C/C(=O)N[C@@H](CO)C(=O)N[C@H](C(=O)N[C@H](Cc1ccccc1)C(=O)O)[C@@H](C)O |  |  | > 20 µM
O=S(=O)(c1ccc2c(c1)OCO2)n1cc(CCCCN2CCC(=C(c3ccc(F)c(F)c3)c3ccc(F)c(F)c3)CC2)nn1 | cell growth or viability, ATP luminescence | 48 h | 3.35 µM
Cc1ccnc(-c2cc(C(=O)O)ccn2)c1.F[P-](F)(F)(F)(F)F.F[P-](F)(F)(F)(F)F.[Ru+2].c1ccc(-c2ccccn2)nc1.c1ccc(-c2ccccn2)nc1 | cell viability | 48 h, light irradiation 2.5 min | > 100 µM
O=C1CS/C(=N\N=C\c2cccc3cc4ccccc4nc23)N1c1ccc([N+](=O)[O-])cc1 | cell growth or viability, MTT | 48 h | > 50 µM
CC[C@H](C)/C=C/C=C/C(O)=C/C(=O)C(F)(F)Cl | cell growth, CellTiter-Glo |  | 241 µM and 242 µM
COC1CC(=O)c2c(O)cccc2C12Oc1cccc3cccc(c13)O2 (centres unmarked) | cell growth or viability, resazurin | 72 h | > 25 µM
Clc1ccc(C(Cn2cnc3ccccc32)OCc2ccc(Br)cc2)c(Cl)c1 (centres unmarked) | cell growth or viability, MTT | 24 h | > 50 µM
COc1cccc(CNC[C@@](O)(COCc2ccccc2)[C@@H]2CC[C@@H](C)C[C@H]2OCc2ccccc2)c1 | cell growth or viability, MTT | 72 h | 16.8 µM
CC(=O)[O][Pd][c]1cc(Cl)ccc1N1N=C(C)C(C)(C)C1=O.CC(=O)[O][Pd][c]1cc(Cl)ccc1N1N=C(C)C(C)(C)C1=O | cell growth or viability, MTT |  | > 100 µM
Cc1cnc(Nc2ccc3c(c2)CCN(C(=O)/C=C/C(=O)C2CCC(C)CC2)C3)nc1-c1cnn(C(C)C)c1 (centres unmarked) | cell growth or viability, MTT | 48 h | 0.67 µM
COc1c(C)c(OC(=O)c2ccc3ccccc3c2)c(C)c(O)c1C(=O)/C=C/c1ccccc1 | cell growth or viability, SRB | 72 h | > 50 µM

Repeated from above:
SMILES | test | conditions | IC50
Cc1ccccc1/C=C/C(=O)N[C@@H](CO)C(=O)N[C@H](C(=O)N[C@H](Cc1ccccc1)C(=O)O)[C@@H](C)O |  |  | > 20 µM
